# Results pooled from the literature.
# Parts stem from different laboratories: compare values within a part only.

# Block 1
# Target: RING finger protein unkempt homolog, zinc fingers 1-6, SBP tag (UNK, Homo sapiens, UniProt Q9C0B0, residues 30-357)
# UniProt Q9C0B0, sequence (30-357, looked up): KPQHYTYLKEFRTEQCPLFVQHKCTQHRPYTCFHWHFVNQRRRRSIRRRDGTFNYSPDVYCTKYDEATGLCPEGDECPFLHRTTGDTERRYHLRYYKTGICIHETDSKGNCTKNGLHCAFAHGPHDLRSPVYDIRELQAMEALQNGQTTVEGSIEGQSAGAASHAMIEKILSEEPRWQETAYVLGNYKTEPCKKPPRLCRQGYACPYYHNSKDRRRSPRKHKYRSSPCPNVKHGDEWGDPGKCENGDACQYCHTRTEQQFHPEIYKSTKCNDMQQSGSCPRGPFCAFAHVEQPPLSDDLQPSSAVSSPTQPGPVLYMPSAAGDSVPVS
# Technique: RNA Bind-n-Seq
# Form: RNA
# Sample: in vitro
# Concentration: 100 nM
# Notes: RNA with constant flanks, vertebrate orthologous sites, ends assumed
# Relative to: input RNA pool
# Direction: higher = stronger binding
# Constant ends, left off below: GGGAGUUCUACAGUCCGACGAUC … CAACAGAGGAUUGAGCAUCA
Sequence,bound/input enrichment [ratio]
AAAGCCAUUUUUCACAUUUCCUGUAAAUAGUGGUUAAUCAUUUUUUUAAAUUUCAUUUUUAAGUGCUGUUUUAACAAUGUGGAUAGACCAUAAAUGUACUUGCUGAAUUCAUUCAUUUUU,0.367
AAAUUUAUUUCAUGCCCUGGACUCCCUAUCGUACCGAUACUUUAAUAGAAUAUGCUUCUUUAGAAGAUUUCCAAAAUAGUCGCCAAACAACAACGUAUAAACUUCCAAAUCGAGUAGAUG,1.42
CGGGGUGUACCAGUGGGGCGCUGCUGGCCAUUUAGCGUUGUUUGAUUUGUGACCUUGACGUAAUAGAUAGGCUUGUGGGUUUUUUUUUUAAUUUAAAGAUAUUAAGACUUAAUUCACUAA,0.973
UAUAAGAACUCUUGCAGUCUCAGAUGUUAUAAAAAUAUAUAUCUGAAUUGUAAGAGUUGUUAGCACAAGUUCUUUUUUUUUUUUUUUUUAAGCACUUGUUUUGGGUACAAGGCAUUUCUG,0.322
AUUUCUAGUACUUAAGCUAACAACAGUUCUAAAAUAUUUAUUUGUCUGUAUGUUUGUACAUAGUACCAACCUCAUAUCGUUGCAGAUUUCUUUUUUCCAUGAGUUUGAGUUUGGUUUUAU,0.42
GCUGUGUAGAGUAGGGCCGUGUUCUCCUUAGGAUGUUGCUUCUUGAUUUUUUUUUUUUUUUAGGGGUGGGUCAGGGUUGUGACACACCAGCCCAGGUGAGAGCUGAUGCGGUUCACCUCA,2.64
UUGUGAGGAAGGGGAAAGACUAGAUUCUUCUCUUCCCAAGUAAAACUGAAAUAAUUUGCUUUUAUUUCUGUCUUGGAAAACAAAGAUGGCCUUUUCUCUUAAUUGUGUAACAGUACCAUC,0.282
AUCCCUCAGUGACAGUAUGCCGUCUGUAGCUGAUUCCCAUUCAAGUCAUUUCUCUGAAUUUAGUUGUUCUGACCUAGAAAGCAUGAAAACUUCUUGUAGUCAUGGUUCCAGUGAUUAUCA,0.498
AAAUUUAUUUCAUGCCAUGGACUCCAUACCGUACAGAUACGUUGAUAGAAUAUGCGUCUUUAGAGGACUUCCAAAACAGCCGCCAAACAACAACUUACAAACUUCCAAAUCGUGUGGAUG,1.99
GCACAUGCCACUGUCACCAAAAACAAACUACCACUUUCCAAAUUUCAUUCAGAGCCAUUUUAGUGUUUUCCUAUUCCCUACCCCUCCCACUACUUUCAAUGAUGAAAUACCCUAAGUUCU,3.58
AUUAGCCACCUCUGAUCAAGGGACACCAAACGGAGCAAGGAGUAAAAUUGCUGCCAUGUGCACAAUGGCUACACCGCAGUCCCUCUUCAGUGUAAAACCAGCUGUGUGUAAGUGUUGAGG,0.235

# Block 2
# Target: RNA binding protein fox-1 homolog 2, RRM domain, GST-SBP tag (RBFOX2, Homo sapiens, UniProt O43251-10, residues 100-194)
# Technique: RNA Bind-n-Seq
# Form: RNA
# Sample: in vitro
# Concentration: 365 nM
# Notes: natural RNA segment, single round, ends assumed
# Relative to: no-protein control
# Direction: higher = stronger binding
# Constant ends, left off below: GGGAGUUCUACAGUCCGACGAUC … UGGAAUUCUCGGGUGCCAA
# Residues (chain): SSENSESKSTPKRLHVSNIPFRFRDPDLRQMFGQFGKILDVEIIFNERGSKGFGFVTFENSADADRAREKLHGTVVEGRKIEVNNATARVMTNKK
Sequence,RBNS enrichment (R)
AGUGUGGAGGCUGAGCUGGUGCCUGGCCCCAGUCUUAUCUGUGCCUUUACUGCUUUGCGCAUCUCAGAUGCUAACUUGGUUCUUUUUCCAGAAGCCUUUGUAUUGGUUAA,0.268
GUGCUGGAGCCAUGGUGUCCUUUGGAGGGACAACGGUGCACGCGGCAUGUAUCCUGGCUGAAGCGCUGCAAUCUUACACUAGCCACAGGGUACUGUUUUGAGCCAAAGGC,0.343
UGGAAAAUUCAAGGAUUGUUUAAAGGUCUGUGAUCAUCACAUACAAGAUGUAACUCUGGUUAUUUCAGUCAUAUCUGUGACUCUAUCAUGUACAGUUUCCUGAAUUGUCA,0.311
GCUGAAGGAAACCAGUGCAACAGCACUGGCUCUCUCCAGGAUCCAGAAGGGGUUUGGUCUGGGACUUCCUUGCUCUCCCUCUUCUCAAGUGCCUUAAUAGUAGGGUAAGU,0.332
CAUCAGUUGUUCUUGGAAGUUUUUAGAAGACCUCACGGACUUUGCAGUUUAUUUUUCUUGGCCAACACAUUAAAACCAUUCUUGGAUUUCAAGUAGCCAAUUUUGCCUUU,0.504
UAUGUGUAUGUACACAUGUGUAUGUACACACACACACACACCUGCCAUACACUUUAGAAGAACGCUUCUCUUCUAUUCCAAUAAAAAGUCCUUUUAGCAAUGCAACAUAU,0.503
CUUUAAACUUUGCUCUUUCAGGUGGAGGCUUCGUUUCUGGGAUCCCACUGCACCGCCAUUUCUUCCCAGAUUUAUGUGUAUAACUUAAACUGGAAAAAAAGAAAAAGAAA,0.314
GCAGACCCCAGGACUGCUGGCAGAUUAGUUGCCUGCCAGGAGGAAUUACUUUCCUUGAUCAAAAAAAUUAACACUGGGGAAGGCUGGAAUCACUUGAGGGGACUAUAAUG,0.425
UAACCUGGAUAUGUUAGAAAAGUAUCACGUGCCACCUGGGAAGAAGUUCUUUUCUGGCAACUGUCACACUCACACAUGAAGGCAAUCCGUGCAGCACAAUACAAGAUGUU,0.385
GUCUUGAUGGCAAAAUAAUUAUGGUAAAAAACAAGUCUCGUGUUUAUUAUUCCUUAAGAACUCUGUGUUAUAUUACCAUGGAACGCCUAAUAAAGCAAAAUGUGGUUGUU,0.746
AGCGGCCAUUUAUGUUCAUGUUCACAGGAAGGUCUUCUGCUGCUCCAUCCUAGACCUGCCCCAGUGCCCAGCAGUCACCCUUCCCCUCUAGCUACAGAGUCCAGGCCACU,0.508
AACCAUGGACACAGAGACCUUAGGGGCUGGGCUUCUCUCCGCACAUGGAGAACAGGAGCCGGGCCCUGGGAUCCUUCUGUUCUGUUAAACAGAACAGAACAGCCUUUGCA,0.66

# Block 3
# Target: Interferon regulatory factor 7, full length, phosphomimetic (IRF7, Homo sapiens, UniProt Q92985, residues 1-503, S101K/S471D/S472D/S475D/S476D/S477D/S483D/S484D/S487D)
# Technique: protein-binding microarray
# Form: double-stranded DNA, one strand shown
# Sample: in vitro
# Concentration: 250 nM
# Notes: 60-bp whole probe
# Added: salmon DNA 0.4 mg/ml
# Relative to: random background probes
# Direction: higher = stronger binding
# Constant ends, left off below: GCCTAGCAC … GTCTTGATTCGCTTGACGCTGCTG
# Construct (chain): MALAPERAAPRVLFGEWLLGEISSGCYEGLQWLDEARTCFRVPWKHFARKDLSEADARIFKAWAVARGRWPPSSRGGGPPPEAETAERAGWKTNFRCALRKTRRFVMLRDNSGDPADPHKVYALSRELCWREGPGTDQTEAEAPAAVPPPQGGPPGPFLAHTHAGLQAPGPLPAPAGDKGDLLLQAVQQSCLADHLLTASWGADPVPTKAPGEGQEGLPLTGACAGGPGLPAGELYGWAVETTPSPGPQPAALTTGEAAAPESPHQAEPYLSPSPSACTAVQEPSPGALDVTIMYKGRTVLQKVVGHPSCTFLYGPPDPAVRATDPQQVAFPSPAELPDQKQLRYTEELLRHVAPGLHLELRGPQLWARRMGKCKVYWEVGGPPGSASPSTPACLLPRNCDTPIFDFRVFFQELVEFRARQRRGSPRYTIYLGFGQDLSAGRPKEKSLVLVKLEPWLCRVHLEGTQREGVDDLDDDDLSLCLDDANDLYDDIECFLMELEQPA
Sequence,log fluorescence
TTAGGACTGGGGTATCGGTAAGTGCTA,-0.555 z-score
TTAGTTCTCCTTATCCTTTAGTGCTAG,1.09 z-score
TTAATGTGTTCTTGGATTCGGTGCTAG,0.497 z-score
GACGGTTTCGGGTATCGAGACGTGCTA,7.32 z-score
TCAATTTTGTCCTCCCCTACTGTGCTA,0.384 z-score
TCACATACTAGTTTCCAACTGTGCTAG,1.35 z-score
TCACTGGTCACTCTCTGACTGTGCTAG,-0.695 z-score
TTAGGACTGGGGACTGCGTTAGTGCTA,-0.385 z-score
TTAGGTTTCAGACTGGGTTAGTGCTAG,0.544 z-score
AGATTTTTATCAAATGTGGGAGTGCTA,-0.376 z-score
TTAGATATCGGGTTTCGTTTAGTGCTA,7.01 z-score
TTAGATTTCAGTAGCGATTAGTGCTAG,0.125 z-score
TCATTGTTGTTTTTTGGACTGTGCTAG,0.877 z-score
TTAGGACTGGCCTATCGGTTAGTGCTA,-0.259 z-score
GACGACCTGAGTATCGAGACGTGCTAG,0.064 z-score
GACGGTTCCCTTTTCCTTACGTGCTAG,2.98 z-score
TGTGTTTTAAATAGGGCAAAGTGCTAG,1.03 z-score
ATAGGACTGGGTATCGGTTAGTGCTAG,0.948 z-score

# Block 4
# Target: Histone acetyltransferase KAT6A, both winged helices, GST fusion (KAT6A, Homo sapiens, UniProt Q92794, residues 1-181)
# Technique: protein binding microarray
# Form: double-stranded DNA, one strand shown
# Sample: in vitro
# Concentration: not given
# Notes: 8-mer, flanks averaged, mean of 2 arrays, mostly near background
# Relative to: not given
# Direction: higher = stronger binding
# Target sequence (chain): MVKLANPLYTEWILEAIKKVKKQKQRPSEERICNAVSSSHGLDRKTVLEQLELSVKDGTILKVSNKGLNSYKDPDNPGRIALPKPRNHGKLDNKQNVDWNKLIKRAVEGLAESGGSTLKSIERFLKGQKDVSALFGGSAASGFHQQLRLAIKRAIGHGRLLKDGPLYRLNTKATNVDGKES
Sequence,E-score
AAGCATTA,-0.227
ACGTAGGA,-0.161
ATAACTTA,-0.123
CGCTAGAA,0.0742
GTGAACAC,0.0793
ATGTGGGC,-0.0335
GATATGGC,0.052
TAGTATGA,-0.132
GCCCAGAA,-0.197
GCACTGCC,0.139
GGCCATGA,-0.108
ACGTCGAG,-0.191
TCGCACAA,0.0334
CCGCAACC,0.144
AATAAAAG,0.0254
CAGCTCCG,0.0484
ACCCGTTA,0.235
CCGTGCTA,0.131
AGGTACCG,0.13
ACCCTTTC,-0.0346
CGGAAAAA,0.231
CCAGCGAA,-0.125
ATATACAA,0.0454
ACATAACT,-0.0831
TATACGAA,-0.0266
